Results of several laboratories.
Each line is one published result; not all experiments were run side by side. Values joined by “and” are separate records of one study, mostly repeats; a detail may differ. ± gives the spread as reported. Converted amounts (≈) assume the structure as drawn.
Chain of UniProt Q92995 (whole entry, looked up): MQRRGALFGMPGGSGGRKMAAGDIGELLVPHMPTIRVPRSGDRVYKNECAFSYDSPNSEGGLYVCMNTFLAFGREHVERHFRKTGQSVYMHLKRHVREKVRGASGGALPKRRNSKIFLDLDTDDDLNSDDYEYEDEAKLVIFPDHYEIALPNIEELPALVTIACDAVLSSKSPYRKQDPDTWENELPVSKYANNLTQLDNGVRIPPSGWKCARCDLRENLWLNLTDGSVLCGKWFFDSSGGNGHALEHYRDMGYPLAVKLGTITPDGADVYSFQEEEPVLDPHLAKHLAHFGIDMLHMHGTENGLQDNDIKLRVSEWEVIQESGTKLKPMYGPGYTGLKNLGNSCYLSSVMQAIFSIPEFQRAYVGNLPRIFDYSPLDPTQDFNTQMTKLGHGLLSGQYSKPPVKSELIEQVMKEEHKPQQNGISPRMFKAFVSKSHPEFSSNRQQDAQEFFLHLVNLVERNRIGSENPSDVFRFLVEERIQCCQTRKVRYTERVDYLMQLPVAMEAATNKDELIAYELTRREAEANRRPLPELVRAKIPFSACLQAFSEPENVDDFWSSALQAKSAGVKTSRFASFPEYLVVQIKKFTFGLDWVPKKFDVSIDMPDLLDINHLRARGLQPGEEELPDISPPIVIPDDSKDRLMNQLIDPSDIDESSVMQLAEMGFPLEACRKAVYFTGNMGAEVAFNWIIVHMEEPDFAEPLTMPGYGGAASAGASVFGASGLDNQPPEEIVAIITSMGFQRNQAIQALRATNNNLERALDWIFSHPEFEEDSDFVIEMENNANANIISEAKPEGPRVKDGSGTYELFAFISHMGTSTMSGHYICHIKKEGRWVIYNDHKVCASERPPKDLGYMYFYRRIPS
Chain of UniProt Q9UBN7 (whole entry, looked up): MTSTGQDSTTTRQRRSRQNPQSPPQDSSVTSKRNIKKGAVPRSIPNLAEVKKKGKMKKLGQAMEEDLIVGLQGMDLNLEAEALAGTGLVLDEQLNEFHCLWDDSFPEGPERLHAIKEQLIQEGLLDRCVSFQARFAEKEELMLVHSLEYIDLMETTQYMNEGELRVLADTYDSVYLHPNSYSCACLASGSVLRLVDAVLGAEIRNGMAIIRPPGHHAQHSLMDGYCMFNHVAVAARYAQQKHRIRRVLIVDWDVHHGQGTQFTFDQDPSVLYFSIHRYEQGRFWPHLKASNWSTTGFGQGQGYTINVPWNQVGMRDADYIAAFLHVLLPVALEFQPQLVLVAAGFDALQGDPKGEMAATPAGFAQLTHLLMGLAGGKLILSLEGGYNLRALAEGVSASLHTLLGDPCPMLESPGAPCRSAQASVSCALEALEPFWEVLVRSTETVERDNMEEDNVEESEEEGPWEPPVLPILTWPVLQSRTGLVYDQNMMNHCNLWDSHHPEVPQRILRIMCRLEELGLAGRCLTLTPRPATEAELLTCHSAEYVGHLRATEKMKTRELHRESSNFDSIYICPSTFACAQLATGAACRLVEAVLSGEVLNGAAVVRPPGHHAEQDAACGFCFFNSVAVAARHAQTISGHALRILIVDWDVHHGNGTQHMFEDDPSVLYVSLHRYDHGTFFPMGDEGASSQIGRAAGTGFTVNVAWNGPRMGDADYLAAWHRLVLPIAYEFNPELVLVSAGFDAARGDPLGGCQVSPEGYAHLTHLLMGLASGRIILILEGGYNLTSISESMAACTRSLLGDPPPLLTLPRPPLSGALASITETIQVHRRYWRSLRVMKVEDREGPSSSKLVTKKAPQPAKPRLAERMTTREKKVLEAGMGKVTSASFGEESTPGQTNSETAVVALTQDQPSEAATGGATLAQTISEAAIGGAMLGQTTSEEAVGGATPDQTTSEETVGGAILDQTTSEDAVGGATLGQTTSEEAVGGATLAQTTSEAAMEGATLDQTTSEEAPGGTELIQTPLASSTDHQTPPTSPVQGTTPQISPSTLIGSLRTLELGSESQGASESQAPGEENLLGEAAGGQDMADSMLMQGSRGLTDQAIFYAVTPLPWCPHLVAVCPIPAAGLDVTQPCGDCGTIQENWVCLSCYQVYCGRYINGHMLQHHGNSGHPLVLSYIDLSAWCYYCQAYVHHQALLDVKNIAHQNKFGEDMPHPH

Compound | target or system | test | system | conditions | scale | measurement | value
N=C(N)c1ccc(OCCC(CCOc2ccc(C(=N)N)cc2)c2ccccc2)cc1 (centres unmarked) | Escherichia coli | checkerboard | ATCC 25922 | unit not given, added: rifampicin | lower = stronger synergy | FICI | ≤ 0.047
CC1=NCCNC(=O)C1=NNc1ccc(S(N)(=O)=O)cc1 | Saccharomyces cerevisiae | – | – | 500 µg/mL | – | glucose uptake | 39.6%
Cc1cc(OC(C)C)ccc1C(=O)C(C)(C)NC(=O)c1sccc1C | Botrytis cinerea | germ tube elongation | B05.10 | 3 µg/mL | – | inhibition | 97.2 ± 2.5%
CO/N=C(\C(=O)N[C@@H]1C(=O)N2C(C(=O)O)=C(CSc3nc(=O)c(O)nn3C)CS[C@H]12)c1csc(N)n1 | Neisseria gonorrhoeae | – | WHO F, DMEM | 1.5 h | – | MIC | 0.0625 µg/mL (≈ 0.113 µM)
CC1=NN(c2ccc(Cl)cc2)C(=O)C1=NNc1ccc(S(N)(=O)=O)cc1 | Saccharomyces cerevisiae | – | – | 50 µg/mL | – | glucose uptake | 28.8%
c1cnc2c(c1)ccc1cccnc12 | Taenia solium | trypan blue uptake | cysts | 25 µg/mL | – | cysticidal efficacy | 100%
O=C(O)CCc1ccc2c(c1)OCO2 | Ubiquitin carboxyl-terminal hydrolase 13, ZnF-UBD domain (USP13, Homo sapiens, UniProt Q92995) | – | – | – | – | Kd | > 1000 µM
CC(C)[C@@H]1NC(=O)[C@@H](CCCNC(=N)N)NC(=O)[C@H]([C@@H](C)O)NC(=O)[C@@H](CCCN)NC(=O)[C@H](Cc2ccccc2)NC(=O)[C@@H](Cc2ccccc2)NC1=O | Naegleria fowleri | – | – | trophozoites | – | IC90 | > 16 µg/mL
CC1(C)S[C@@H]2[C@H](NC(=O)[C@H](N)c3ccccc3)C(=O)N2[C@H]1C(=O)O | Streptococcus viridans | – | 10 clinical isolates | – | – | MIC50 | 0.25 µg/mL (≈ 0.715 µM)
CC1=NN(c2cc(Cl)ccc2Cl)C(=O)C1=NNc1ccc(S(N)(=O)=O)cc1 | Saccharomyces cerevisiae | – | – | 50 µg/mL | – | glucose uptake | 46%
CC(=O)NC[C@H]1CN(c2ccc(N3CCOCC3)c(F)c2)C(=O)O1 | Streptococcus pyogenes | – | 40 clinical isolates | – | – | MIC50 | 1 µg/mL (≈ 2.96 µM)
CC1=NN(c2ccc(F)cc2)C(=O)C1=NNc1ccc(S(N)(=O)=O)cc1 | Saccharomyces cerevisiae | – | – | 500 µg/mL | – | glucose uptake | 71%
Cn1cc(-c2ccc(-c3cncc(Cl)c3N3CCC4(CCNC4=O)CC3)cc2)cn1 | COLO 205 | gene expression, microarray, item: PLEKHG2 mRNA | – | concentration not given, 2 h | reference: untreated cells | log2 fold change | 2.5
CC1=NN(c2cccc([N+](=O)[O-])c2)C(=O)C1=NNc1ccc(S(N)(=O)=O)cc1 | Saccharomyces cerevisiae | – | – | 500 µg/mL | – | glucose uptake | 35.2%
CCCCCOc1ccc(-c2ccc(-c3ccc(C(=O)N[C@H]4C[C@@H](O)[C@@H](OCC[N+](C)(C)C)NC(=O)[C@@H]5[C@@H](O)[C@@H](C)CN5C(=O)[C@H]([C@@H](C)O)NC(=O)[C@H]([C@H](O)[C@@H](O)c5ccc(O)cc5)NC(=O)[C@@H]5C[C@@H](O)CN5C(=O)[C@H]([C@@H](C)O)NC4=O)cc3)cc2)cc1 | Candida glabrata | – | 10956, neutropenic mouse, disseminated candidiasis | dose not given, average 24 h AUC over 7 days | – | total AUC/MIC for 1 log kill | 301
CN[C@H](CC(C)C)C(=O)N[C@H]1C(=O)N[C@@H](CC(N)=O)C(=O)N[C@H]2C(=O)N[C@H]3C(=O)N[C@H](C(=O)N[C@H](C(=O)O)c4cc(O)cc(O)c4-c4cc3ccc4O)[C@H](O)c3ccc(c(Cl)c3)Oc3cc2cc(c3O[C@@H]2O[C@H](CO)[C@@H](O)[C@H](O)[C@H]2O[C@H]2C[C@](C)(N)[C@H](O)[C@H](C)O2)Oc2ccc(cc2Cl)[C@H]1O | Streptococcus pyogenes | broth microdilution | – | – | – | MIC90 | 1 µg/mL (≈ 0.69 µM)
O=C(O)CCc1ccno1 | Protein deacetylase HDAC6, ZnF-UBD domain (HDAC6, Homo sapiens, UniProt Q9UBN7) | – | – | – | – | Kd | > 1000 µM
C#CCOC(=O)ON=C1C=CC(=C(C#N)c2ccccc2)C=C1 | Candidozyma auris | – | ATCC MYA-5001 | concentration not given | – | antifungal activity | active
COC(=O)[C@H](Cc1c[nH]c2ccccc12)NCc1cc2ccccc2nc1OC | Pseudomonas aeruginosa | – | – | 128 µg/mL, without pentamidine | reference: control | growth | 88.4%
CN[C@H](CC(C)C)C(=O)N[C@H]1C(=O)N[C@@H](CC(N)=O)C(=O)N[C@H]2C(=O)N[C@H]3C(=O)N[C@H](C(=O)N[C@H](C(=O)O)c4cc(O)cc(O)c4-c4cc3ccc4O)[C@H](O)c3ccc(c(Cl)c3)Oc3cc2cc(c3O[C@@H]2O[C@H](CO)[C@@H](O)[C@H](O)[C@H]2O[C@H]2C[C@](C)(N)[C@H](O)[C@H](C)O2)Oc2ccc(cc2Cl)[C@H]1O | Staphylococcus aureus | – | USA300 LAC, female ICR mice, kidney infection, kidney | – | – | bacterial load | 3.97 log CFU/g and 4.24 log CFU/g and 7.59 log CFU/g and 7.65 log CFU/g and 4.21 log CFU/g and 4.68 log CFU/g

A few entries again:
Compound | target or system | test | system | conditions | scale | measurement | value
CC1=NN(c2ccc(F)cc2)C(=O)C1=NNc1ccc(S(N)(=O)=O)cc1 | Saccharomyces cerevisiae | – | – | 500 µg/mL | – | glucose uptake | 71%
O=C(O)CCc1ccc2c(c1)OCO2 | Ubiquitin carboxyl-terminal hydrolase 13, ZnF-UBD domain (USP13, Homo sapiens, UniProt Q92995) | – | – | – | – | Kd | > 1000 µM
c1cnc2c(c1)ccc1cccnc12 | Taenia solium | trypan blue uptake | cysts | 25 µg/mL | – | cysticidal efficacy | 100%
